Measurements pooled from the literature.
Numbered parts are unrelated; each lists some results of a single study.

Block 1
Target: Interferon regulatory factor 5, full length, phosphomimetic (IRF5, Homo sapiens, UniProt Q13568-2, residues 1-514, K96S/S451D/S453D/S456D/S462D)
Method: protein-binding microarray
Molecule type: double-stranded DNA, one strand shown
Sample: in vitro
Tested at: 250 nM
Setting: 60-bp whole probe
Together with: salmon DNA 0.4 mg/ml
Reference: random background probes
Reading: higher = stronger binding
Shared flanks, not repeated: GCCTAGCAC … GTCTTGATTCGCTTGACGCTGCTG
For `TTAGGTATCGACTATTGGTTAGTGCTA`, the log fluorescence was 3.51 z-score.
`CTTTAACTCATTCTCCACTTGTGCTAG` has a log fluorescence of 0.366 z-score.
With `TCAGCTTTCATTTATTTACTGTGCTAG` the log fluorescence was 3.37 z-score.
`AAGGAAGGACCATCCAGAGAGTGCTAG` gave a log fluorescence of -0.483 z-score.
`GTAGGACTGCTTATCCTTTAGTGCTAG` gave a log fluorescence of -0.448 z-score.
`GACGATATCCGTATCGAGACGTGCTAG` has a log fluorescence of 1.42 z-score.
With `TTTCCCATGAGTCTCAAAATGTGCTAG` the log fluorescence was 1.73 z-score.
`TTAGGTATCGGTATCGATTAGTGCTAG` gave a log fluorescence of 9.5 z-score.
With `TTAGGGATCGACTTTCGGTTAGTGCTA` the log fluorescence was 9.66 z-score.
For `TTAGGTCTCGGTTTCGGATAGTGCTAG`, the log fluorescence was 4.44 z-score.
For `GACGATATCCGGTTTCGAGACGTGCTA`, the log fluorescence was 3.3 z-score.
For `CATGCTCTTATATACCTGTATGTGCTA`, the log fluorescence was 0.409 z-score.
With `GCCGGTTTCGGTTCCGGGACGTGCTAG` the log fluorescence was 10.3 z-score.
The log fluorescence of `TTCTCTTTCATTGCTGCCCTGTGCTAG` is reported as 2.96 z-score.
With `TCAAGTTTCATTCCTGAACTGTGCTAG` the log fluorescence was 3.47 z-score.
With `TTAGGTATCGGAACTGGGTTAGTGCTA` the log fluorescence was 2.57 z-score.
`ACAGCAAGAGCTCAACGGGGGTGCTAG` gave a log fluorescence of 0.0236 z-score.
With `GACGGTTTCGGGGTTCGGGACGTGCTA` the log fluorescence was 5 z-score.
With `AAACAAATAAGCCTTACTTGGTGCTAG` the log fluorescence was 0.149 z-score.
The log fluorescence of `TCATTTTTTTTTTCATCACTGTGCTAG` is reported as 1.61 z-score.
The log fluorescence of `GACGGTTTCGGTCTCGTGACGTGCTAG` is reported as 9.69 z-score.
The log fluorescence of `TTAGATATCGGGACTGGATCAGTGCTA` is reported as 1.03 z-score.
`CTTTCTATGTCTGTTTTTGCGTGCTAG` has a log fluorescence of 2.89 z-score.
With `GAAGGACTGGACTTTCGGGACGTGCTA` the log fluorescence was 4.66 z-score.
`GACGGTTTCGGGTATAGGGACGTGCTA` has a log fluorescence of 7.47 z-score.

Block 2
Target: TAR DNA-binding protein 43, full length, His tag (TARDBP, Homo sapiens, UniProt Q13148, residues 1-414)
Method: RNA Bind-n-Seq
Molecule type: RNA
Sample: in vitro
Tested at: 20 nM
Setting: 6-mer, flanks averaged, single round
Together with: 150 mM KCl
Reference: input library
Reading: higher = stronger binding
`GGUAAU` — result for “6-mer enrichment (R)”: 0.906.
Under “6-mer enrichment (R)”, `UAUGUU` is recorded as 0.774.
`UCGACG`: “6-mer enrichment (R)” 0.842.
Under “6-mer enrichment (R)”, `CACUCA` is recorded as 0.604.
For `AUCGGG`, “6-mer enrichment (R)” read 1.78.
`GUAAAC`: “6-mer enrichment (R)” 0.653.
For `AAUGUG`, “6-mer enrichment (R)” read 1.06.
`GCUCGA` — result for “6-mer enrichment (R)”: 0.796.
For `GUAUAU`, “6-mer enrichment (R)” read 0.703.
Under “6-mer enrichment (R)”, `GUUUGA` is recorded as 0.861.
`CCUAGG`: “6-mer enrichment (R)” 0.97.

Block 3
Target: RING finger protein unkempt homolog, zinc fingers 1-6, GST-SBP tag (UNK, Homo sapiens, UniProt Q9C0B0, residues 30-357)
Method: RNA Bind-n-Seq
Molecule type: RNA
Sample: in vitro
Tested at: not given
Setting: RNA with constant flanks, human and mouse sites, ends assumed
Reference: input RNA pool
Reading: higher = stronger binding
Shared flanks, not repeated: GGGAGUUCUACAGUCCGACGAUC … CAACAGAGGAUUGAGCAUCA
Target sequence (chain): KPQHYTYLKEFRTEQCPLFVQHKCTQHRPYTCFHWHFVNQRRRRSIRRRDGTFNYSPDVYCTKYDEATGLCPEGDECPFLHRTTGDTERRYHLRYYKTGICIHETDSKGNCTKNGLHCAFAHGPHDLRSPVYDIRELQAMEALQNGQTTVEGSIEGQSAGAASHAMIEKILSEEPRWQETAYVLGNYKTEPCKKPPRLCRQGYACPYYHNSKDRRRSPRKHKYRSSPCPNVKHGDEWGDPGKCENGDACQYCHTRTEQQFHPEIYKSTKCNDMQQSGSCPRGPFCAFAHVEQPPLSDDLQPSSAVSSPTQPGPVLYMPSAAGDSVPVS
`ACCAAGGAGUCUGAUUGCAGGAAGGGAAGAGCAUGUAAGAAAUAAGUUUUUUUAAAGUGUUAUUUUGUAUAAAUGGGAAGAAAGAUUCAAUUAAGUUAUUAACAUUUGGGACCUGGAUAA` has a bound/input enrichment of 0.939 ratio.
With `CAUUCAAGAAAGAAACUUUACAAAUGCAGGGAAUGUGACAAAUCCUUUACUAGCAGCUCAUAUGUCAGAAUACAUCAGAGAAUUCAUUCAGGAGAGAAACCUUACAAAUGUAGUGAGUGU` the bound/input enrichment was 0.349 ratio.
With `CACAAAGAGGUUGACCAGAGUGAGAAACAUUUCAGUGAAGAUAAUAAUGAAUCAGUACCUAUGGAGUGCGAUUCCUUCUGUAGUGACCAGAAUGAGUCUGAAGUAGAGUCAUCCGCAAAU` the bound/input enrichment was 0.161 ratio.
For `AAUGGGCGGCUGGGACAGGGGAACGCUUGCAGGAUGGACCCCCUACCCCAAGAAUGGAAGUUAGGGGUGGUUGUUUCUCCAUUUAUGGCAUUGGGUUCGGAGAUGGGCCAUGAUGAAGGG`, the bound/input enrichment was 0.353 ratio.
For `GGAAGAGUUGGGCUGUGGAAGGACAUCUUCACCGUCUCCAUGAAUGAGAAGUUUGACUUGGUGUAUAAACAGAAGAUGGGAAAGUGUGACCUCACGUUUGACUUUUAUUUAUAAUAACAG`, the bound/input enrichment was 0.0959 ratio.
For `AGCACAACCCCAGCAAAGCUAAGAAAUCCUUGUACAAGUGAACAAAACUGCACCAGCCCAUUUAGCUACAAAAAUGUGCUUAGUCUUACUGACAGAGGAGAGUUUUUCAAUGAACUUGUU`, the bound/input enrichment was 0.576 ratio.
`UAUCUGAAUGACUUGGACCGUGUAGCCGACCCUUCCUAUCUGCCUACACAACAAGACGUGCUUAGAGUUCGAGUCCCCACUACAGGGAUCAUCGAAUACCCCUUUGACUUACAAAGUGUC` has a bound/input enrichment of 0.133 ratio.
With `UCGCUUCGGCGGAGCCUGGGCUGACCAGCCAGGACAGCGGGGUAAACCCGAACAAUUCUGCGCGAGGUAGGGAGGCCAUGGCGUCCGGCAGUAACUGGCUCUCCGGGGUGAAUGUCGUGC` the bound/input enrichment was 0.12 ratio.
The bound/input enrichment of `GCUCACAGCAUCCCAGUAACUGAUGGCAUGUUUGUCUUUAUGUAAACUAUAUUGAAAUUUUUAGGGGCUAUUUUCCAUUAUGUCUGAACCUACUUUUGAUCUGAAAGCUUAACUUUAUAA` is reported as 2.35 ratio.
`CAAUUGAAGCGCUGAACGCAGUUCAUGGAUUCAUUGCAGAAAAAAUCCGAGAAAUGCCCCAAAAUGUUGCCAAGACAGAACCAGUCAGUAUCCUACAACCUCAGACCACCGUUAAUCCUG` gave a bound/input enrichment of 0.149 ratio.
With `UGUGCAUUGGGUUAAAAACGACAACCAACAUCAGCCAUGAAAGAUCCAAGUCGCAGCAGUACUAGCCCAAGCAUCAUCAAUGAAGAUGUGAUUAUUAACGGUCAUUCUCAUGAAGAUGAC` the bound/input enrichment was 0.155 ratio.

Block 4
Target: RNA binding protein fox-1 homolog 2, RRM domain, GST-SBP tag (RBFOX2, Homo sapiens, UniProt O43251-10, residues 100-194)
Method: RNA Bind-n-Seq
Molecule type: RNA
Sample: in vitro
Tested at: 365 nM
Setting: natural RNA segment, single round, ends assumed
Reference: no-protein control
Reading: higher = stronger binding
Shared flanks, not repeated: GGGAGUUCUACAGUCCGACGAUC … UGGAAUUCUCGGGUGCCAA
Construct (chain): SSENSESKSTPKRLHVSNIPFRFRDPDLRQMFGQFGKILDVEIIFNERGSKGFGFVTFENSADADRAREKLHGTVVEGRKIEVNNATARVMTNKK
`UAUCUGAAUGUCUCAAUCCAAAACUUGAAGCUCUUUAGACCAAGAACUAGGGAGAGGAAAAAGGAGCUCAUCUCUCAGCCCCUUCUUCAUAGCAUUUACAGCCCCGGGCU`: “RBNS enrichment (R)” 0.854.
`AUCAACAAGGGAGUUUAAUUAUGUGUGAGACUGACACAAACCUUAAUGUAAUUUAGUUAGAAUGCCAGAAGGAGAACACUAUUUUCAUACCCUACUUUUUCUGUACCUAA`: “RBNS enrichment (R)” 0.678.
For `UAUUUCUUUUCUCCCUGCUCUUGAGUGUCCUUGUCCUGCCCUCCCAUUCCAGCCGUGAUGAGCAUUGUGAUCCGAGUGGGUGCCACGUGAGAGAGGGACUGUCACUUUCC`, “RBNS enrichment (R)” read 1.33.
`UGAGUUUGUCUUAUUGGCGCCUUUUUCCUCAGCUGUCUUCCAAGUAUUAUUUUUACUGUUAAAAAAUUUUUUAAAAAUGUGAAAUGUAAUGUUUUUACAGCAACAAUAUG`: “RBNS enrichment (R)” 0.699.
For `UCUCACAGUGGAGGGCAGACUCUAACAGAUGCCAGCUGAACGCUCGCUGGCCCUGGAUGUCAUACGAGUUGGGGACCAGAAAUCUGGGCUCAGAGAACCCGUCCAGGGAG`, “RBNS enrichment (R)” read 1.96.
`AGCGGACCUUCCCAGCUAGAAUUCACUCCACUUGGACAUGGGCCCCAGAUACCAUGAUGCUGAGCCCGGAAACUCCACAUCCUGUGGGACCUGGGCCAUAGUCAUUCUGC`: “RBNS enrichment (R)” 0.247.
Under “RBNS enrichment (R)”, `CAGAAGGCAUCUGGCUCUGAGUUAUAAAUUACUUCCCUGGUCCUGACAGUCACCUGGGGUCCCCCCUCUCCCUGGUUCCACCUUUCUGAGGAGGAGCCUGGAGUCAGGGC` is recorded as 0.147.
Under “RBNS enrichment (R)”, `UCUGUGACAGGCUCCUCCCCACCCCCGGAUAUCCCGGUGCUGCCAGUAGUGAGUGGACAGAUGGAAGAAGCACCGUGUCAUUUGCCAGAGUACAAAGACACGAUUACAUA` is recorded as 0.51.
`CAACACUAAUUUAUUUUGUCUUGAGUUUUACUACAAGAUGAGACUAUGGAUCCCGCAUGCCUGAAUUCACUAAAGCCAAGGGUCUGUAAGCCACGCUGCUCUUCCGAGAC` — result for “RBNS enrichment (R)”: 0.489.
`AACUGUUGCUAUUGUGAGAUGGAUUUUAACUGACCUAUUAAGGGUUUCUUUCGAAUGGCACUACUUUAGGGACAUUCUAGUAUUUGCUUCUAUUGUUUGGGCCUUGUGGA` — result for “RBNS enrichment (R)”: 0.537.
Under “RBNS enrichment (R)”, `UAAUAGAUUUGUUCUGUGUUUGAUUGCCAGCAUCCUCCAGACCCCUGAAUCAUCUAAAGCUAGGUCACUGUGUUGUGUAAAGGGGAGACAGGACUGACAGCAUCCCUUAA` is recorded as 1.86.
Under “RBNS enrichment (R)”, `UCCCUUGGAGGCUCAGAGCAGCUGGCCCAAGCUGCAGCUCGUCUCCAGUGGAGGCUUGAAUGCCCUCAGAAACGACCCUGGCCAAUGUCACCGCAGAGCCGAGGCGGUGU` is recorded as 0.573.

A few entries again (block 3):
With `UCGCUUCGGCGGAGCCUGGGCUGACCAGCCAGGACAGCGGGGUAAACCCGAACAAUUCUGCGCGAGGUAGGGAGGCCAUGGCGUCCGGCAGUAACUGGCUCUCCGGGGUGAAUGUCGUGC` the bound/input enrichment was 0.12 ratio.
`UAUCUGAAUGACUUGGACCGUGUAGCCGACCCUUCCUAUCUGCCUACACAACAAGACGUGCUUAGAGUUCGAGUCCCCACUACAGGGAUCAUCGAAUACCCCUUUGACUUACAAAGUGUC` has a bound/input enrichment of 0.133 ratio.
For `AGCACAACCCCAGCAAAGCUAAGAAAUCCUUGUACAAGUGAACAAAACUGCACCAGCCCAUUUAGCUACAAAAAUGUGCUUAGUCUUACUGACAGAGGAGAGUUUUUCAAUGAACUUGUU`, the bound/input enrichment was 0.576 ratio.
With `CAUUCAAGAAAGAAACUUUACAAAUGCAGGGAAUGUGACAAAUCCUUUACUAGCAGCUCAUAUGUCAGAAUACAUCAGAGAAUUCAUUCAGGAGAGAAACCUUACAAAUGUAGUGAGUGU` the bound/input enrichment was 0.349 ratio.
`CAAUUGAAGCGCUGAACGCAGUUCAUGGAUUCAUUGCAGAAAAAAUCCGAGAAAUGCCCCAAAAUGUUGCCAAGACAGAACCAGUCAGUAUCCUACAACCUCAGACCACCGUUAAUCCUG` gave a bound/input enrichment of 0.149 ratio.
`ACCAAGGAGUCUGAUUGCAGGAAGGGAAGAGCAUGUAAGAAAUAAGUUUUUUUAAAGUGUUAUUUUGUAUAAAUGGGAAGAAAGAUUCAAUUAAGUUAUUAACAUUUGGGACCUGGAUAA` has a bound/input enrichment of 0.939 ratio.
For `AAUGGGCGGCUGGGACAGGGGAACGCUUGCAGGAUGGACCCCCUACCCCAAGAAUGGAAGUUAGGGGUGGUUGUUUCUCCAUUUAUGGCAUUGGGUUCGGAGAUGGGCCAUGAUGAAGGG`, the bound/input enrichment was 0.353 ratio.
